Results of several laboratories.
Compare with care: the assays were run in different laboratories.
B1: cdc15 19-312 D255A/E256A/E259A (Schizosaccharomyces pombe, UniProt Q09822); sequence looked up; chain SVKFRDNFWGSEDAGMDALMSRTKSSLSVLESIDEFYAKRASIEREYASKLQELAASSADIPEVGSTLNNILSMRTETGSMAKAHEEVSQQINTELRNKIREYIDQTEQQKVVAANAIEELYQKKTALEIDLSEKKDAYEYSCNKLNSYMRQTKKMTGRELDKYNLKIRQAALAVKKMDAEYRETNELLLTVTREWIDRWTEVCDAFQHIEEYRLEFLKTNMWAYANIISTACVKDAASCAKIRLTLENTNIDEDITQMIQNEGTGTTIPPLPEFNDYFKENGLNYDIDQLISK
B2: ZBTB5 1-124 (Homo sapiens, UniProt O15062); sequence looked up; chain MDFPGHFEQIFQQLNYQRLHGQLCDCVIVVGNRHFKAHRSVLAACSTHFRALFSVAEGDQTMNMIQLDSEVVTAEAFAALIDMMYTSTLMLGESNVMDVLLAASHLHLNSVVKACKHYLTTRTL
B3: SPOP Y87F (Homo sapiens, UniProt O43791); sequence looked up; chain MSRVPSPPPPAEMSSGPVAESWCYTQIKVVKFSYMWTINNFSFCREEMGEVIKSSTFSSGANDKLKWCLRVNPKGLDEESKDYLSLFLLLVSCPKSEVRAKFKFSILNAKGEETKAMESQRAYRFVQGKDWGFKKFIRRDFLLDEANGLLPDDKLTLFCEVSVVQDSVNISGQNTMNMVKVPECRLADELGGLWENSRFTDCCLCVAGQEFQAHKAILAARSPVFSAMFEHEMEESKKNRVEINDVEPEVFKEMMCFIYTGKAPNLDKMADDLLAAADKYALERLKVMCEDALCSNLSVENAAEILILADLHSADQLKTQAVDFINYHASDVLETSGWKSMVVSHPHLVAEAYRSLASAQCPFLGPPRKRLKQS
B4: dlg1 1-97 Q26A (Drosophila melanogaster, UniProt P31007); sequence looked up; chain MPVKKQEAHRALELLEDYHARLSEPADRALRIAIERVIRIFKSRLFQALLDIQEFYELTLLDDSKSIQQKTAETLQIATKWEKDGQAVKIADFIKSS
B5: Igf2 E-peptide 92-180 S95C (Mus musculus, UniProt P09535); sequence looked up; chain RDVCTSQAVLPDDFPRYPVGKFFQYDTWRQSAGRLRRGLPALLRARRGRMLAKELKEFREAKRHRPLIVLPPKDPAHGGASSEMSSNHQ
B6: IL2 mature E63A (Bos taurus, UniProt P05016); sequence looked up; chain APTSSSTGNTMKEVKSLLLDLQLLLEKVKNPENLKLSRMHTFDFYVPKVNATELKHLKCLLEALKLLEEVLNLAPSKNLNPREIKDSMDNIKRIVLELQGSETRFTCEYDDATVNAVEFLNKWITFCQSIYSTMT
B7: TOP2 C180A/C731A/K1134C (Saccharomyces cerevisiae, UniProt P06786); AlexaFluor 488/546 labels; sequence looked up; chain MSTEPVSASDKYQKISQLEHILKRPDTYIGSVETQEQLQWIYDEETDCMIEKNVTIVPGLFKIFDEILVNAADNKVRDPSMKRIDVNIHAEEHTIEVKNDGKGIPIEIHNKENIYIPEMIFGHLLTSSNYDDDEKKVTGGRNGYGAKLCNIFSTEFILETADLNVGQKYVQKWENNMSIAHPPKITSYKKGPSYTKVTFKPDLTRFGMKELDNDILGVMRRRVYDINGSVRDINVYLNGKSLKIRNFKNYVELYLKSLEKKRQLDNGEDGAAKSDIPTILYERINNRWEVAFAVSDISFQQISFVNSIATTMGGTHVNYITDQIVKKISEILKKKKKKSVKSFQIKNNMFIFINCLIENPAFTSQTKEQLTTRVKDFGSRCEIPLEYINKIMKTDLATRMFEIADANEENALKKSDGTRKSRITNYPKLEDANKAGTKEGYKCTLVLTEGDSALSLAVAGLAVVGRDYYGCYPLRGKMLNVREASADQILKNAEIQAIKKIMGLQHRKKYEDTKSLRYGHLMIMTDQDHDGSHIKGLIINFLESSFPGLLDIQGFLLEFITPIIKVSITKPTKNTIAFYNMPDYEKWREEESHKFTWKQKYYKGLGTSLAQEVREYFSNLDRHLKIFHSLQGNDKDYIDLAFSKKKADDRKEWLRQYEPGTVLDPTLKEIPISDFINKELILFSLADNIRSIPNVLDGFKPGQRKVLYGCFKKNLKSELKVAQLAPYVSEATAYHHGEQSLAQTIIGLAQNFVGSNNIYLLLPNGAFGTRATGGKDAAAARYIYTELNKLTRKIFHPADDPLYKYIQEDEKTVEPEWYLPILPMILVNGAEGIGTGWSTYIPPFNPLEIIKNIRHLMNDEELEQMHPWFRGWTGTIEEIEPLRYRMYGRIEQIGDNVLEITELPARTWTSTIKEYLLLGLSGNDKIKPWIKDMEEQHDDNIKFIITLSPEEMAKTRKIGFYERFKLISPISLMNMVAFDPHGKIKKYNSVNEILSEFYYVRLEYYQKRKDHMSERLQWEVEKYSFQVKFIKMIIEKELTVTNKPRNAIIQELENLGFPRFNKEGKPYYGSPNDEIAEQINDVKGATSDEEDEESSHEDTENVINGPEELYGTYEYLLGMRIWSLTKERYQKLLCQKQEKETELENLLKLSAKDIWNTDLKAFEVGYQEFLQRDAEARGGNVPNKGSKTKGKGKRKLVDDEDYDPSKKNKKSTARKGKKIKLEDKNFERILLEQKLVTKSKAPTKIKKEKTPSVSETKTEEEENAPSSTSSSSIFDIKKEDKDEGELSKISNKFKKISTIFDKMGSTSATSKENTPEQDDVATKKNQTTAKKTAVKPKLAKKPVRKQQKVVELSGESDLEILDSYTDREDSNKDEDDAIPQRSRRQRSSRAASVPKKSYVETLELSDDSFIEDDEEENQGSDVSFNEED
B8: FCY1 (yeast, UniProt Q12178); sequence looked up; chain MVTGGMASKWDQKGMDIAYEEAALGYKEGGVPIGGCLINNKDGSVLGRGHNMRFQKGSATLHGEISTLENCGRLEGKVYKDTTLYTTLSPCDMCTGAIIMYGIPRCVVGENVNFKSKGEKYLQTRGHEVVVVDDERCKKIMKQFIDERPQDWFEDIGE
B9: NEMO 44-113 (Homo sapiens); chain GSWEQGAPETLQRCLEENQELRDAIRQSNQILRERCEELLHFQASQREEKEFLMCKFQEARKLVERLGLEKLD
B10: ph-p 1397-1577 D16K/D17R (Drosophila melanogaster, UniProt P39769); chain GVGSGETNGLGTGGIVGVDAMALVDRLDEAMAEEKMQTEATPKLSESFPILGASTEVPPMSLPVQAAISAPSPLAMPLGSPLSVALPTLAPLSVVTSGAAPKSSEVNGTDRPPISSWSVKRVSNFIRELPGCQDYVDDFIQQEIDGQALLLLKEKHLVNAMGMKLGPALKIVAKVESIKEV
B11: PTPRM 21-740 (Homo sapiens, UniProt P28827); sequence looked up; chain ETFSGGCLFDEPYSTCGYSQSEGDDFNWEQVNTLTKPTSDPWMPSGSFMLVNASGRPEGQRAHLLLPQLKENDTHCIDFHYFVSSKSNSPPGLLNVYVKVNNGPLGNPIWNISGDPTRTWNRAELAISTFWPNFYQVIFEVITSGHQGYLAIDEVKVLGHPCTRTPHFLRIQNVEVNAGQFATFQCSAIGRTVAGDRLWLQGIDVRDAPLKEIKVTSSRRFIASFNVVNTTKRDAGKYRCMIRTEGGVGISNYAELVVKEPPVPIAPPQLASVGATYLWIQLNANSINGDGPIVAREVEYCTASGSWNDRQPVDSTSYKIGHLDPDTEYEISVLLTRPGEGGTGSPGPALRTRTKCADPMRGPRKLEVVEVKSRQITIRWEPFGYNVTRCHSYNLTVHYCYQVGGQEQVREEVSWDTENSHPQHTITNLSPYTNVSVKLILMNPEGRKESQELIVQTDEDLPGAVPTESIQGSTFEEKIFLQWREPTQTYGVITLYEITYKAVSSFDPEIDLSNQSGRVSKLGNETHFLFFGLYPGTTYSFTIRASTAKGFGPPATNQFTTKISAPSMPAYELETPLNQTDNTVTVMLKPAHSRGAPVSVYQIVVEEERPRRTKKTTEILKCYPVPIHFQNASLLNSQYYFAAEFPADSLQAAQPFTIGDNKTYNGYWNTPLLPYKSYRIYFQAASRANGETKIDCVQVATKGAATPKPVPEPEKQTDHT
B12: MIR1 S285A (Saccharomyces cerevisiae, UniProt P23641); sequence looked up; chain MSVSAAPAIPQYSVSDYMKFALAGAIGCGSTHSSMVPIDVVKTRIQLEPTVYNKGMVGSFKQIIAGEGAGALLTGFGPTLLGYSIQGAFKFGGYEVFKKFFIDNLGYDTASRYKNSVYMGSAAMAEFLADIALCPLEATRIRLVSQPQFANGLVGGFSRILKEEGIGSFYSGFTPILFKQIPYNIAKFLVFERASEFYYGFAGPKEKLSSTSTTLLNLLSGLTAGLAAAIVSQPADTLLSKVNKTKKAPGQSTVGLLAQLAKQLGFFGSFAGLPTRLVMVGTLTALQFGIYGSLKSTLGCPPTIEIGGGGH
B13: SPOP G128D (Homo sapiens, UniProt O43791); sequence looked up; chain MSRVPSPPPPAEMSSGPVAESWCYTQIKVVKFSYMWTINNFSFCREEMGEVIKSSTFSSGANDKLKWCLRVNPKGLDEESKDYLSLYLLLVSCPKSEVRAKFKFSILNAKGEETKAMESQRAYRFVQDKDWGFKKFIRRDFLLDEANGLLPDDKLTLFCEVSVVQDSVNISGQNTMNMVKVPECRLADELGGLWENSRFTDCCLCVAGQEFQAHKAILAARSPVFSAMFEHEMEESKKNRVEINDVEPEVFKEMMCFIYTGKAPNLDKMADDLLAAADKYALERLKVMCEDALCSNLSVENAAEILILADLHSADQLKTQAVDFINYHASDVLETSGWKSMVVSHPHLVAEAYRSLASAQCPFLGPPRKRLKQS
B14: cheA 1-654 (Escherichia coli, UniProt P07363); chain MSMDISDFYQTFFDEADELLADMEQHLLVLQPEAPDAEQLNAIFRAAHSIKGGAGTFGFSVLQETTHLMENLLDEARRGEMQLNTDIINLFLETKDIMQEQLDAYKQSQEPDAASFDYICQALRQLALEAKGETPSAVTRLSVVAKSEPQDEQSRSQSPRRIILSRLKAGEVDLLEEELGHLTTLTDVVKGADSLSAILPGDIAEDDITAVLCFVIEADQITFETVEVSPKISTPPVLKLAAEQAPTGRVEREKTTRSNESTSIRVAVEKVDQLINLVGELVITQSMLAQRSSELDPVNHGDLITSMGQLQRNARDLQESVMSIRMMPMEYVFSRYPRLVRDLAGKLGKQVELTLVGSSTELDKSLIERIIDPLTHLVRNSLDHGIELPEKRLAAGKNSVGNLILSAEHQGGNICIEVTDDGAGLNRERILAKAASQGLTVSENMSDDEVAMLIFAPGFSTAEQVTDVSGRGVGMDVVKRNIQKMGGHVEIQSKQGTGTTIRILLPLTLAILDGMSVRVADEVFILPLNAVMESLQPREADLHPLAGGERVLEVRGEYLPIVELWKVFNVAGAKTEATQGIVVILQSGGRRYALLVDQLIGQHQVVVKNLESNYRKVPGISAATILGDGSVALIVDVSALQAINREQRMANTAA
Chain of UniProt P26368 (whole entry, looked up): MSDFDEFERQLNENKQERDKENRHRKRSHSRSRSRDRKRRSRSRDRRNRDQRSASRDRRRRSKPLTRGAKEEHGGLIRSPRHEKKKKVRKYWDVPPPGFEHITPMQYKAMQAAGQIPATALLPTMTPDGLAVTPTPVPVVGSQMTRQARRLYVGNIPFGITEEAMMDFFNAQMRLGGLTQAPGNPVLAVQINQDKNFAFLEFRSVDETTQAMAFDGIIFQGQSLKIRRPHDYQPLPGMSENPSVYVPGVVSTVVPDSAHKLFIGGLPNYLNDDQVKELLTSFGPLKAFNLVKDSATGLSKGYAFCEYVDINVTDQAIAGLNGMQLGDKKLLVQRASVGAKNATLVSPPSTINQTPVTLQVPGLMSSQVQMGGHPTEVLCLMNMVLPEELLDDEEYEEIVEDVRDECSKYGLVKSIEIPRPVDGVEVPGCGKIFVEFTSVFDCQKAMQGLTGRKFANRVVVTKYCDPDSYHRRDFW

Under binding, `B1 (cdc15 19-312 D255A/E256A/E259A)` is recorded as “binds” (itself; negative stain electron microscopy).
Under binding, `B2 (ZBTB5 1-124)` is recorded as “binds” (itself; negative-stain electron microscopy).
Under binding, `B3 (SPOP Y87F)` is recorded as “binds” (itself; negative-stain TEM).
`B4 (dlg1 1-97 Q26A)` — result for binding: “binds” (itself; SEC).
Under binding, `SQQPYNNQGQQQNME (TAF15 79-93 (Homo sapiens, UniProt Q92804); N-acetyl/C-amide; sequence looked up)` is recorded as “binds” (itself; negative-stain TEM; peptide; peptide).
For `B5 (Igf2 E-peptide 92-180 S95C)`, binding read “binds” (itself; dynamic light scattering; together with: ATP).
For `B6 (IL2 mature E63A)`, binding read “binds” (itself; SDS-PAGE).
Under binding, `B7 (TOP2 C180A/C731A/K1134C)` is recorded as “binds” (itself; FRET or BRET; together with: ADP, ATP, ADPNP).
`B8 (FCY1)` — result for binding: “binds” (itself; fluorescence titration).
`B9 (NEMO 44-113)`: binding “binds” (itself; SEC-MALS).
`AGUUAUUUU (ssRNA)` gave a Kd of 1160 nM (U2AF2 148-342 (Homo sapiens, UniProt P26368); sequencing of bound RNA; RNA; motif only).
For `B10 (ph-p 1397-1577 D16K/D17R)`, binding read “binds” (itself; AUC; sedimentation velocity, self-association).
`B11 (PTPRM 21-740)` — result for binding: “binds” (itself; bead aggregation, epifluorescence microscopy; self-aggregation).
Under binding, `B12 (MIR1 S285A)` is recorded as “binds” (itself; pull-down).
For `B13 (SPOP G128D)`, binding read “binds” (itself; negative-stain TEM).
`B14 (cheA 1-654)`: binding “binds” (itself; HDX-MS; dimer-monomer exchange).

Repeated from above:
Under binding, `B12 (MIR1 S285A)` is recorded as “binds” (itself; pull-down).
